Assay results pooled from the literature.
Numbered parts are unrelated; each lists some results of a single study.
Chain of UniProt P00519 (whole entry, unmodified, looked up): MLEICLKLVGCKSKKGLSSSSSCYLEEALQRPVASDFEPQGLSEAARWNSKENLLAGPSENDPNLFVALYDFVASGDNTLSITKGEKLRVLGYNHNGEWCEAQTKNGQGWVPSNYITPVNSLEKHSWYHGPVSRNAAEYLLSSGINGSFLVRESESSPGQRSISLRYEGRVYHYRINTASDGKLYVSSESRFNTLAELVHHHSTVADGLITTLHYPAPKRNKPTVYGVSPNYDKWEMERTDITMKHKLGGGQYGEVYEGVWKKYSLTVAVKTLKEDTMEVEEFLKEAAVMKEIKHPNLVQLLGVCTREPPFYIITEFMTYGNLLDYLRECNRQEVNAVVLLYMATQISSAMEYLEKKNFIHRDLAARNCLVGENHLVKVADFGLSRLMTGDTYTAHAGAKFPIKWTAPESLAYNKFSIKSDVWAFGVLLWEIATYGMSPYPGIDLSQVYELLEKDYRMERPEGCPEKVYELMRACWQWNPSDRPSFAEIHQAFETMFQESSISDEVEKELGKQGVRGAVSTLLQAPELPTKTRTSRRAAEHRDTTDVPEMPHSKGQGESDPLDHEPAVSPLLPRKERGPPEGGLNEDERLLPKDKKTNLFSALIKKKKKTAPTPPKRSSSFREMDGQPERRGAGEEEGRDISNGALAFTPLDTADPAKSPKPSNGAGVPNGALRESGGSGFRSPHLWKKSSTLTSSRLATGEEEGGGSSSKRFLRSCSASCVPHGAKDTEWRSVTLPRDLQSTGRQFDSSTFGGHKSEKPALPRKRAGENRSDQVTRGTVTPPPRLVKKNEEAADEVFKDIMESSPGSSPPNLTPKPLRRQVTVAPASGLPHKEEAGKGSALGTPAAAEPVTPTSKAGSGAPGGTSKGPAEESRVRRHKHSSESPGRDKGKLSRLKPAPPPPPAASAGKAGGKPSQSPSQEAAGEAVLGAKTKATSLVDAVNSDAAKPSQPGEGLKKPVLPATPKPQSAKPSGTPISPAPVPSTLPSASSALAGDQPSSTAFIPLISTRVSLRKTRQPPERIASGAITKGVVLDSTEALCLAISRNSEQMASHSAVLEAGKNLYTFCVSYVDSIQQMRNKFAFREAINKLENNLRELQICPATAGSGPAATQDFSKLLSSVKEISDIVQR
Chain of UniProt O43353 (whole entry, looked up): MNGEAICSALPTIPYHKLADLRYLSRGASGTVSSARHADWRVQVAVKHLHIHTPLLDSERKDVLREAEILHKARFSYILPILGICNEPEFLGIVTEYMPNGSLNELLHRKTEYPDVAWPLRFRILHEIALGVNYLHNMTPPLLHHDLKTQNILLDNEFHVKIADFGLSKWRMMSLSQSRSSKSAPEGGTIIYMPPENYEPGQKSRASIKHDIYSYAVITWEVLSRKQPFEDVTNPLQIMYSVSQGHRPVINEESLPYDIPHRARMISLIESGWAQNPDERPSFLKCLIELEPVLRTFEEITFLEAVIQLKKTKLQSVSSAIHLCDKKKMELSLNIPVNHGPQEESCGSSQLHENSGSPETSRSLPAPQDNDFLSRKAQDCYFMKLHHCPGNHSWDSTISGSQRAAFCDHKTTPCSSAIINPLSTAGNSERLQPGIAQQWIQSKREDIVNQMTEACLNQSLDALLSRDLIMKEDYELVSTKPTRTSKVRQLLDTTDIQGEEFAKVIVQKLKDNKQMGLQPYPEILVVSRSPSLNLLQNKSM
Chain of UniProt P78356 (whole entry, looked up): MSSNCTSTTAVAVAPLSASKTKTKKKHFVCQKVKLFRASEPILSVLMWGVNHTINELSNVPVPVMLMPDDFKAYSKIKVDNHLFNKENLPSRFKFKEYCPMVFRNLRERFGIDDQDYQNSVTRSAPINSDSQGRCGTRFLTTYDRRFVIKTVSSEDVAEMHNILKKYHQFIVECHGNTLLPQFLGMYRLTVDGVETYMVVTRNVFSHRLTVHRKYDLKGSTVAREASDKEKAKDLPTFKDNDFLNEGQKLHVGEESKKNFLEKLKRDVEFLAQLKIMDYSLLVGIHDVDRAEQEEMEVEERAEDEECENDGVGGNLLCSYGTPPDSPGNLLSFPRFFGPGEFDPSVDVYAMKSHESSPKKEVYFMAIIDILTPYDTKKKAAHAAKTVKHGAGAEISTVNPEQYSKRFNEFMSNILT
Chain of UniProt Q8NG66 (whole entry, looked up): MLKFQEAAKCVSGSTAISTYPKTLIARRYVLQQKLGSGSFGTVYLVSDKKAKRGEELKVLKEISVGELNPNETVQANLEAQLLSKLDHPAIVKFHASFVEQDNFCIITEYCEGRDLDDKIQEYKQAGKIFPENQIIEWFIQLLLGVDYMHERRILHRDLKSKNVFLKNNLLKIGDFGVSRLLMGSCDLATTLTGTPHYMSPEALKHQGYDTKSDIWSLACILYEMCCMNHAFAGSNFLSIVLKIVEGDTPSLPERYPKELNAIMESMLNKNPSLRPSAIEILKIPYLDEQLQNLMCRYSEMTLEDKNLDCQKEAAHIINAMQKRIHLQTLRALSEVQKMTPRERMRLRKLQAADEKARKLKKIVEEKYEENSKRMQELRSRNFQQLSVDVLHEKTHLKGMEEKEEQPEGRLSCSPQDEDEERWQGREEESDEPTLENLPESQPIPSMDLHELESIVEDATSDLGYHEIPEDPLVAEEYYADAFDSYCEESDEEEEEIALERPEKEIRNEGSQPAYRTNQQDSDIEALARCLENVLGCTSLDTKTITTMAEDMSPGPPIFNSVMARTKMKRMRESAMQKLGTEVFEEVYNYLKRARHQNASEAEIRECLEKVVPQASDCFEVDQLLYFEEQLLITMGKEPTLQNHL
Chain of UniProt Q9H3Y6 (whole entry, looked up): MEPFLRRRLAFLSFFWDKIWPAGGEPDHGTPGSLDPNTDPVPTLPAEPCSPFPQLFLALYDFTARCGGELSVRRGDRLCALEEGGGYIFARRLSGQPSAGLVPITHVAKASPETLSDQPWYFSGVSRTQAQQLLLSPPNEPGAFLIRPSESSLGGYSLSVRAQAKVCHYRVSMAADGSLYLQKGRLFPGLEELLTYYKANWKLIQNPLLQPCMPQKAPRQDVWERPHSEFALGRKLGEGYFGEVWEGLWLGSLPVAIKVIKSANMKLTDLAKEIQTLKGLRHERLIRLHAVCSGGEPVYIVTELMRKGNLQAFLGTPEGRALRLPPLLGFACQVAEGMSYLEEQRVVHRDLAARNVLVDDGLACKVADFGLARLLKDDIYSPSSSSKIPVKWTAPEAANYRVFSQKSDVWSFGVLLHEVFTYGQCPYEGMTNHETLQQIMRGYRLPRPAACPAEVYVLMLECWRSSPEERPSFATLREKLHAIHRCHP
Chain of UniProt P27448 (whole entry, looked up): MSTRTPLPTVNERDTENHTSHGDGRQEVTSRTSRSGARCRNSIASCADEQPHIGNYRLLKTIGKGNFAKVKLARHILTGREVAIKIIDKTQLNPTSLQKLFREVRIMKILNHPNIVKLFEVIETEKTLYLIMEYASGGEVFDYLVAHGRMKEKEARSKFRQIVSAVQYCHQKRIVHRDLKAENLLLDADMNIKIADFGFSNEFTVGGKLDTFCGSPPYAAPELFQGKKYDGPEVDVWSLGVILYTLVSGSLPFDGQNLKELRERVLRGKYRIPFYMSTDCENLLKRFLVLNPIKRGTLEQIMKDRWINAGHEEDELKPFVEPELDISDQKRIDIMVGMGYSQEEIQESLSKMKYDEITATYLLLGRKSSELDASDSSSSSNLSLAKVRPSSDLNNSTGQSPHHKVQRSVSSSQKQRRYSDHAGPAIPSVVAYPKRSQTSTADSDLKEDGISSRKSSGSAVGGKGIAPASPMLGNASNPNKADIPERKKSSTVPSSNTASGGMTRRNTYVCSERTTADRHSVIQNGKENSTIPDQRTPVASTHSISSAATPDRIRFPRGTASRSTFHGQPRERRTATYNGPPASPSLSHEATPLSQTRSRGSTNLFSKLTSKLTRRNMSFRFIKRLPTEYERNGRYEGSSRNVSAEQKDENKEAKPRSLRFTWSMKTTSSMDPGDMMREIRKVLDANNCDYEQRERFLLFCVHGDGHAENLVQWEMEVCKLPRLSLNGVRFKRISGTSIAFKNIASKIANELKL

Sample 1
SMILES: CC(C)(C)c1cnc(CSc2cnc(NC(=O)C3CCN(CCCCCSc4cccc5c4CN(C4CCC(=O)NC4=O)C5=O)CC3)s2)o1 (stereo not drawn)
Target: Cyclin-dependent kinase 9 (CDK9, Homo sapiens, UniProt P50750)
Chain of UniProt P50750 (whole entry, looked up): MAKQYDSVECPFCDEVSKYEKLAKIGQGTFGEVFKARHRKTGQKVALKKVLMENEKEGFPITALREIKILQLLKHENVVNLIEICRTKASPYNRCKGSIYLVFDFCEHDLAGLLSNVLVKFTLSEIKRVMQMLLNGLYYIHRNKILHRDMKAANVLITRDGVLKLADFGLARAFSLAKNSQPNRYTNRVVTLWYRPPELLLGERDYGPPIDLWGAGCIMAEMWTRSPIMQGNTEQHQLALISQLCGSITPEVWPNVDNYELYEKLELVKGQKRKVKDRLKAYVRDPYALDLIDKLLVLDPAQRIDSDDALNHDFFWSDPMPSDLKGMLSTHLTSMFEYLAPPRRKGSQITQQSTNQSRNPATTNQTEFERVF
Cell line: HuT78
Time: 10 h
tested at | remaining activity [%]
0.0005 µM | 90.6
0.005 µM | 53.9
0.0001 µM | 84.7
0.001 µM | 75.9
0.1 µM | 23.3

Sample 2
SMILES: CC(C)n1cnc(-c2ccc(F)cc2)c1-c1ncc(C(=O)Nc2ccc(N3CCN(C)CC3)cc2)[nH]1
Technique: phase 2a trial
Host: idiopathic pulmonary fibrosis patients
dose | setting | patients with headache [%]
all arms pooled | grade 5 emergent event | 0
30 mg once daily | grade 2 emergent event | 0
60 mg once daily | grade 4 emergent event | 0
60 mg once daily | grade 3 emergent event | 0
30 mg once daily | grade 1 emergent event | 0
30 mg once daily | grade 3 emergent event | 0
30 mg once daily | grade 4 emergent event | 0
all arms pooled | grade 2 emergent event | 0
60 mg once daily | grade 5 emergent event | 0

Sample 3
Structure (SMILES): O=C(NCc1ncc(C(F)(F)F)cc1Cl)c1ccc2c(c1)C1(CCS(=O)(=O)CC1)[C@@H](C1CC1)N2S(=O)(=O)c1ccc(F)cc1
Technique: competition with immobilised ligand
Tested at: 1 µM
target | effect on | remaining binding
NEK11 (Homo sapiens, UniProt Q8NG66) | cell-free assay | 100%
KIT (Homo sapiens, UniProt P10721, L576P) | cell-free assay | 76%
PIK3CA (Homo sapiens, UniProt P42336, E545A) | cell-free assay | 90%
TLK1 (Homo sapiens, UniProt Q9UKI8) | cell-free assay | 100%
Tyrosine-protein kinase ABL1, non-phosphorylated (ABL1, Homo sapiens, UniProt P00519, F317I) | binding | 71%
PDPK1 (Homo sapiens, UniProt O15530) | cell-free assay | 92%
Tyrosine-protein kinase ABL1, phosphorylated (ABL1, Homo sapiens, UniProt P00519, F317L) | cell-free assay | 78%
MARK3 (Homo sapiens, UniProt P27448) | cell-free assay | 100%
PIP4K2B (Homo sapiens, UniProt P78356) | cell-free assay | 89%
MAP3K1 (Homo sapiens, UniProt Q13233) | cell-free assay | 68%
PRKACA (Homo sapiens, UniProt P17612) | cell-free assay | 98%
RIPK2 (Homo sapiens, UniProt O43353) | cell-free assay | 100%
SRMS (Homo sapiens, UniProt Q9H3Y6) | cell-free assay | 60%

Sample 4
Target: Tyrosine-protein kinase Yes (YES1, Homo sapiens, UniProt P07947)
Chain of UniProt P07947 (whole entry, looked up): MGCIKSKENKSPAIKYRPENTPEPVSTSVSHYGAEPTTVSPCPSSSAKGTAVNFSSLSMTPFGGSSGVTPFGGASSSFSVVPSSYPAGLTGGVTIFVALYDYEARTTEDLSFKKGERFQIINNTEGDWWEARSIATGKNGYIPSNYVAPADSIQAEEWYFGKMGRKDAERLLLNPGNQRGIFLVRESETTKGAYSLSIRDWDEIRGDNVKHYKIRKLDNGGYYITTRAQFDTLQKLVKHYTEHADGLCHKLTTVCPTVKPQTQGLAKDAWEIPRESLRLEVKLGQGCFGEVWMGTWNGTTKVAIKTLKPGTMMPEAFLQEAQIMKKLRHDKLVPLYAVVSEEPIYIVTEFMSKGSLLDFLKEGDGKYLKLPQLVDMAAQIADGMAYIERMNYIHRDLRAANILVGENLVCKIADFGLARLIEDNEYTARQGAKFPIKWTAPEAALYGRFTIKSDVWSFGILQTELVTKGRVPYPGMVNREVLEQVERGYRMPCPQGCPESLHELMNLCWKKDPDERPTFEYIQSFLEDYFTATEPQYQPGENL
Effect on: enzyme activity
Mode: inhibitor
Tested at: 0.5 µM
Baseline: control
SMILES | remaining activity [%]
CCN(CC)CCNC(=O)c1c(C)[nH]c(/C=C2\C(=O)Nc3ccc(F)cc32)c1C | 5.91
COc1cc2ncnc(Nc3cccc(Cl)c3)c2cc1OC | 59.9
N#C/C(=C\c1ccc(O)c(O)c1)C(=O)NCc1ccccc1 | 103
CCN(CC)CCNC(=O)c1c(C)[nH]c(/C=C2\C(=O)Nc3ccc(Cl)cc32)c1C | 5.29
Nc1cccc(-c2cc3c(Oc4cccc(O)c4)ncnc3[nH]2)c1 | 6.05
CN(C)C[C@H]1CCn2c(c(C3=C(c4cn(C)c5ccccc45)C(=O)NC3=O)c3ccccc32)C1 | 95.3
Ic1cccc(CSc2nnc(-c3ccncc3)o2)c1 | 95.7
CN([C@@H](Cc1ccc(OS(=O)(=O)c2cccc3cnccc23)cc1)C(=O)N1CCN(c2ccccc2)CC1)S(=O)(=O)c1cccc2cnccc12 | 110
c1ccc(-c2[nH]ncc2-c2ccnc3ccccc23)nc1 | 93.3
C[C@@H]1CCN(C(=O)CC#N)C[C@@H]1N(C)c1ncnc2[nH]ccc12 | 87.1
O=C1C(Cl)=C(N2C(=O)CCC2=O)C(=O)c2ccccc21 | 103
COc1cc2ncnc(Nc3ccc(O)c(Br)c3)c2cc1OC | 34.6
c1ccc(-c2cnc(Nc3ccc(OCCN4CCCC4)cc3)s2)cc1 | 42.1
O=C(Nc1cccc(Nc2nccc(Nc3cccc(C(F)(F)F)c3)n2)c1)C1CC1 | 78.9
Cc1cn(-c2cc(NC(=O)c3ccc(C)c(Nc4nccc(-c5cccnc5)n4)c3)cc(C(F)(F)F)c2)cn1 | 66.1
Cc1cc2ncc(-c3ccccc3)nc2cc1C | 102
Cn1nc2c3c(cccc31)C(=O)c1ccccc1-2 | 94.5
N#Cc1c(NC(=O)c2cccc3ccccc23)sc2c1CCCC2 | 104
COc1cc2c(cc1OC)-c1[nH]nc(Nc3cccc(F)c3)c1C2 | 61.3
O=C1c2ccccc2-c2n[nH]c3cccc1c23 | 88.2
CCN(CC)C(=O)c1ccc(Nc2nc(OCC3CCCCC3)c3[nH]cnc3n2)cc1 | 15.4
Cc1nc2cc3nc(-c4cccs4)cnc3cc2n1C | 66.9
O=C(NC(NC(=S)Nc1ccc(F)c([N+](=O)[O-])c1)C(Cl)(Cl)Cl)C(c1ccccc1)c1ccccc1 (stereo not drawn) | 94.6
CCOc1nc(NC(=O)Cc2cc(OC)ccc2OC)cc(N)c1C#N | 99.2

Excerpt of the above (sample 3):
target | effect on | remaining binding
MAP3K1 (Homo sapiens, UniProt Q13233) | cell-free assay | 68%
SRMS (Homo sapiens, UniProt Q9H3Y6) | cell-free assay | 60%
Tyrosine-protein kinase ABL1, non-phosphorylated (ABL1, Homo sapiens, UniProt P00519, F317I) | binding | 71%
PIP4K2B (Homo sapiens, UniProt P78356) | cell-free assay | 89%
TLK1 (Homo sapiens, UniProt Q9UKI8) | cell-free assay | 100%
PIK3CA (Homo sapiens, UniProt P42336, E545A) | cell-free assay | 90%
MARK3 (Homo sapiens, UniProt P27448) | cell-free assay | 100%
